Results collected from several papers.
± gives the spread as reported.

Substance | cell line | assay | conditions | EC50 [nM]
CCN(c1ccc(OC)cc1)c1ncnc2occ(C)c12 | A10 rat | microtubule depolymerization, immunofluorescence | 18 h | 53
O=C(N[C@@H]1CCCc2c1[nH]c1ccc(Cl)cc21)c1ccccn1 | Vero | cell growth, MTS | 72 h | 20 ± 5
insulin human | rat primary hepatocytes | glycogen accumulation, agonist | 0.1% HSA | 0.17
CCCCN(CCCC)c1ccc(C2Nc3ccc(Cl)cc3NC3=C2C(=O)CC(C)(C)C3)cc1 (centres unmarked) | H4 | cytoprotection | added: thapsigargin 7.5 µM | 22200 ± 1550
Cc1ccc(C)c(CNC(=O)CNC(=O)c2cccc(Cl)c2C)c1 | INS1 | cell viability, protective, CellTiter-Glo | 72 h, added: tunicamycin 0.15 µg/mL | 13000 ± 1000
C=C1CC[C@H](O)C/C1=C/C=C1\CCC[C@]2(C)[C@@H](C(=O)CO)CC[C@@H]12 | SK-MEL-188 melanoma, pigmented | cell growth, inhibitor, MTT | 48 h | 2.5
C#Cc1cccc(Nc2ncnc3cc(OCCOC)c(OCCOC)cc23)c1 | mouse tumour organoids | cell viability, CellTiter-Glo | 72 h | 5000
insulin icodec | rat primary hepatocytes | glycogen accumulation, agonist | 0.1% HSA | 69
COc1cc([C@@H]2c3cc4c(cc3[C@@H](O[C@@H]3O[C@@H]5CO[C@@H](c6cccs6)O[C@H]5[C@H](O)[C@H]3O)[C@H]3COC(=O)[C@H]23)OCO4)cc(OC)c1O | BJ fibroblasts | cell proliferation |  | 29000
CC1(C)CC(=O)C2=C(C1)Nc1cc(Cl)ccc1NC2c1ccc(N2CCCCC2)cc1 (centres unmarked) | H4 | cytoprotection | added: thapsigargin 7.5 µM | 27500 ± 3320
COc1ccc(C2=N[C@@H](c3ccc(Cl)cc3)[C@@H](c3ccc(Cl)cc3)N2C(=O)N2CCNC(=O)C2)c(OC(C)C)c1 | human PBMC | T cell expansion, resazurin | 7 days, added: concanavalin A 2 µg/mL | 1130
CC1(C)CC(=O)C2=C(C1)Nc1cc(C(F)(F)F)ccc1NC2c1ccc(N2CCCCC2)cc1 (centres unmarked) | H4 | cytoprotection | added: thapsigargin 7.5 µM | < 20000
neurotensin | BON | EGFR Tyr1068 phosphorylation, western blot |  | 0.44 ± 0.08
CC1(C)CC(=O)C2=C(C1)Nc1cc(-c3ccccc3)ccc1NC2c1ccc(N2CCCC2)cc1 (centres unmarked) | H4 | cytoprotection | added: thapsigargin 7.5 µM | 6850 ± 980
Nc1ncnc2[nH]ncc12 | KM12 | cell viability |  | 1000
CC1(C)CC(=O)C2=C(C1)Nc1cc(C(=O)c3ccccc3)ccc1NC2c1ccc(N2CCOCC2)cc1 (centres unmarked) | H4 | cytoprotection | added: thapsigargin 7.5 µM | 18900 ± 1300
CC(C)C[C@H](NC(=O)[C@H](Cc1ccccc1)NC(=O)c1cnccn1)B(O)O | RPMI-8226 | cytotoxicity, WST-1 | 24 h | ~2.5

Repeated from above:
Substance | cell line | assay | conditions | EC50 [nM]
C=C1CC[C@H](O)C/C1=C/C=C1\CCC[C@]2(C)[C@@H](C(=O)CO)CC[C@@H]12 | SK-MEL-188 melanoma, pigmented | cell growth, inhibitor, MTT | 48 h | 2.5
CCCCN(CCCC)c1ccc(C2Nc3ccc(Cl)cc3NC3=C2C(=O)CC(C)(C)C3)cc1 (centres unmarked) | H4 | cytoprotection | added: thapsigargin 7.5 µM | 22200 ± 1550
